Results of several laboratories.
Lines come from different studies, so protocols differ.
PFF0160c: Dihydroorotate dehydrogenase (quinone), mitochondrial (PFF0160c, Plasmodium falciparum, UniProt Q08210)
UniProt Q08210, sequence (whole entry, looked up): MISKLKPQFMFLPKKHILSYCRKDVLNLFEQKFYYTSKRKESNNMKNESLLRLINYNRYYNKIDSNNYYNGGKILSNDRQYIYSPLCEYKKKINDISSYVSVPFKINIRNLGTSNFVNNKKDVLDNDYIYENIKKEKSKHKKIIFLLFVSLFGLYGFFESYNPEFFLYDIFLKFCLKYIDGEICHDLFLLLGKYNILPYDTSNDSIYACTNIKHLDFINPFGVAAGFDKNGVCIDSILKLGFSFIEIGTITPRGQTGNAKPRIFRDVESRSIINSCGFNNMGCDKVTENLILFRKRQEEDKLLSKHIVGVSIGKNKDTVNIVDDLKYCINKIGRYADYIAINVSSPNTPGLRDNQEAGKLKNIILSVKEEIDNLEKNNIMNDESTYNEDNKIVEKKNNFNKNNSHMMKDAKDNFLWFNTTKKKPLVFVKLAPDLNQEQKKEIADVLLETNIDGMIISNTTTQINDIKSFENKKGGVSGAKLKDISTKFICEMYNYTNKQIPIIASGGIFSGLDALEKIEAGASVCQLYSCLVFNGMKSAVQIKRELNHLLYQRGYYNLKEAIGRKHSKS
UniProt Q8NEB9, sequence (whole entry, looked up): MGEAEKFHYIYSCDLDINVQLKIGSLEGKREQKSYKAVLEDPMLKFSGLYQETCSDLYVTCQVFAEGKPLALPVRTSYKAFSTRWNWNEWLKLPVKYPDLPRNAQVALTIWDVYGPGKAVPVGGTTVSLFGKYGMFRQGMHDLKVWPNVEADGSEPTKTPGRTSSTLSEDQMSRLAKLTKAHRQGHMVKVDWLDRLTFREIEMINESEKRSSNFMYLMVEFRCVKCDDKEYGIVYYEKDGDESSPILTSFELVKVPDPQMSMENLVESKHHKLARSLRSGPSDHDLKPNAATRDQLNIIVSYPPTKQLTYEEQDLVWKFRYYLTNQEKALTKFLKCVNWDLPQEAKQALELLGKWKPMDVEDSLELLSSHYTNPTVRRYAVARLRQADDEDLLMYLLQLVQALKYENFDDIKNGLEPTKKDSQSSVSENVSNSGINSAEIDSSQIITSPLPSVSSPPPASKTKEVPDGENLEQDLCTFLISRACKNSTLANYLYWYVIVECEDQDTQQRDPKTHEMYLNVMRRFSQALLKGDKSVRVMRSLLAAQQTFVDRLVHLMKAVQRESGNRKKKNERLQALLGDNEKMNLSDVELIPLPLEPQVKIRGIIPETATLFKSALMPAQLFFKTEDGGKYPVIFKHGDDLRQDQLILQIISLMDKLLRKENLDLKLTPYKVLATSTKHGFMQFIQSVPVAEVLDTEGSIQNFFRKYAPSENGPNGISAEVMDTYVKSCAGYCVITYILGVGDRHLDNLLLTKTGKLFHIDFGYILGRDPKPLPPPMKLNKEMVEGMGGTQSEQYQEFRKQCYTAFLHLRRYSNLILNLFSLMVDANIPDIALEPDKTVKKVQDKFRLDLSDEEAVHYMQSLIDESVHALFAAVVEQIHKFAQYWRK

SMILES	tested on	assay	test system	conditions	measurement	value
[18FH]			mouse, brain	intravenous, 1 h	tracer uptake	0.13 %ID/g
Cc1ccc(S(=O)(=O)Oc2ccc3c(c2)Oc2nc4c(c(N)c2C3c2ccc(Cl)c(Cl)c2)CCCC4)cc1 (stereo not drawn)	SH-SY5Y	cell growth or viability, MTT		25 µM	viability	58.2%
[2H]c1c([2H])c([C@]2([2H])CCCN2C(=O)C(C)(C)Oc2ccc3cn[nH]c3c2)c([2H])c([2H])c1C([2H])([2H])[2H]	Phosphatidylinositol 3-kinase catalytic subunit type 3 (PIK3C3, Homo sapiens, UniProt Q8NEB9)	binding, competition with immobilised ligand		1 µM	remaining binding	95%
C[C@]12CC[C@H]3[C@@H](CC=C4CC(O)CC[C@@]43CO)[C@@H]1CCC2O (stereo partly drawn)			rat, plasma	intraperitoneal, 20 mg/kg	bioavailability	70.8%
CC(C)C[C@H](NC(=O)[C@H](Cc1ccccc1)NC(=O)[C@H](Cc1ccccc1)NC(=O)Cc1ccc(-c2ccccc2)cc1)C(=O)N[C@@H](CCCCN)C(=O)N[C@@H](CCCNC(=N)N)C(=O)N[C@H](C(=O)N[C@@H](Cc1c[nH]c2ccccc12)C(=O)N[C@@H](CCCCN)C(=O)N[C@@H](CCCNC(=N)N)C(=O)O)C(C)C		metabolic stability, mass spectrometry	human, liver microsomes	1 h	compound remaining	13.3%
COc1ccc(S(=O)(=O)Oc2ccc3c(c2)Oc2nc4c(c(N)c2C3c2cccc(OC)c2)CCCC4)cc1 (stereo not drawn)	SH-SY5Y	cell growth or viability, MTT		0.4 µM	viability	98.1%
CCCCCCCCCCOc1cc2c(O)c(C(=O)OCC)cnc2cc1OCC	BaF3	cell growth or viability, ATP luminescence		72 h	IC50	> 12500 nM
O=C1CC[C@H](N2Cc3c(ccc4c3OCC43CCN(C[C@@H]4CCC5(CCN(c6ccc([C@@H]7c8ccc(O)cc8CC[C@@H]7c7ccccc7)cc6)CC5)OC4)CC3)C2=O)C(=O)N1			beagle dog, plasma	intravenous, 1 mg/kg	clearance	2.1 mL/min/kg
C[N+]1=C2C=C(N/C=C/c3ccc(O)cc3)C(=O)c3[nH]cc(c32)CC1	HeLa	cell growth or viability, MTT		72 h	CC50	4700 nM
Cc1cc(OC(C)C(=O)N2CCc3ccccc32)ccc1Cl (stereo not drawn)	PFF0160c	enzyme activity, inhibitor, absorbance			IC50	445 nM
COc1ccc([C@@]23Oc4cc(OC)cc(OC)c4[C@@]24N=C(C2CC2)N[C@@]4(O)[C@H](C(=O)N(C)OC)[C@H]3c2ccccc2)cc1		metabolic stability	male CD-1 mouse, liver microsomes	1 µM, pH 7.4	microsomal CLint	924 µL/min/mg
Nc1c2c(nc3c1C(c1cccc([N+](=O)[O-])c1)c1ccc(OCC(=O)c4ccc(Cl)cc4)cc1O3)CCCC2 (stereo not drawn)	SH-SY5Y	cell growth or viability, MTT		6.3 µM	viability	66.5%
O=C(CNCC1CCCCC1)Nc1cc(C(F)(F)F)ccc1Cl	PFF0160c	enzyme activity, inhibitor, absorbance			IC50	910 nM
Nc1c2c(nc3c1C(c1cccc([N+](=O)[O-])c1)c1ccc(OS(=O)(=O)c4ccc(F)cc4)cc1O3)CCCC2 (stereo not drawn)	SH-SY5Y	cell growth or viability, MTT		0.4 µM	viability	91%
COc1ccc2c(c1)[C@]13CCCC[C@@H]1[C@H](C2)N(C)CC3			Sprague-Dawley rat, hepatocytes	2 µM, 4 h, pH 7.4	fraction unbound	1

For quick reference, copied from above:
SMILES	tested on	assay	test system	conditions	measurement	value
[18FH]			mouse, brain	intravenous, 1 h	tracer uptake	0.13 %ID/g
